Experimental data gathered from unrelated publications.
Lines come from different studies, so protocols differ. Numbers after ± are the reported error.

SMILES	test	test system	conditions	tissue uptake [%ID/g]
CC[C@H](C)[C@H](NC(=O)[C@H](CCCCN)NC(=O)CNC(=O)[C@H](CC(C)C)NC(=O)[C@H](Cc1ccccc1)NC(=O)[C@H](CCCCN)NC(=O)[C@H](CO)NC(=O)[C@H](Cc1ccccc1)NC(=O)[C@H](Cc1c[nH]c2ccccc12)NC(=O)[C@H](CCC(N)=O)NC(=O)[C@@H](NC(=O)[C@H](Cc1ccccc1)NC(=O)CCCCCNC(=O)CN1CCN(CC(=O)O)CCN(CC(=O)O)CCN(CC(=O)O)CC1)C(C)C)C(=O)N[C@@H](CCC(=O)O)C(=O)N1CCC[C@H]1C(=O)N[C@@H](CC(=O)O)C(=O)N[C@H](C(=O)N[C@@H](CO)C(=O)N[C@@H](CCC(N)=O)C(=O)N[C@H](C(=O)N[C@@H](CCC(N)=O)C(=O)N[C@@H](CC(=O)O)C(=O)N1CCC[C@H]1C(=O)N[C@@H](CC(N)=O)C(=O)N[C@@H](CC(=O)O)C(=O)N[C@@H](CCC(N)=O)C(=O)N[C@@H](Cc1ccc(O)cc1)C(=O)N[C@@H](CCC(=O)O)C(=O)N1CCC[C@H]1C(=O)N[C@@H](Cc1ccccc1)C(=O)O)C(C)C)C(C)C [copper-64 labelled]		C57BL/6 mice, male, tumour-free, small intestine	1 h	11.1 ± 1.9
C[C@H](O)[C@@H](NC(=O)[C@H]1CCCN1C(=O)[C@@H](CCCCN)NC(=O)[C@@H](CO)NC(=O)[C@@H](Cc1ccc(O)cc1)NC(=O)[C@@H](CC(N)=O)NC(=O)CCOCCOCCOCCNC(=O)CN1CCN(CC(=O)O)CCN(CC(=O)O)CCN(CC(=O)O)CC1)C(=O)N[C@H](CC(=O)O)C(=O)N[C@H](CCCNC(=N)N)C(=O)N[C@H](CCC(N)=O)C(=O)N[C@H](Cc1ccc(O)cc1)C(=O)N[C@H](Cc1c[nH]cn1)C(=O)N[C@H](Cc1ccccc1)C(N)=O [gallium-68 labelled]		BALB/c nude mice U-87 MG tumour, spleen	intravenous, 1.85 MBq, 0.08333 h, radiolabelled	0.98 ± 0.14
CC[C@H](C)[C@H](NC(=O)[C@@H](Cc1c[nH]c2ccccc12)NC(=O)[C@@H]1CCCN1C(=O)[C@H](CCCCN)NC(=O)[C@H](CCCCN)NC(=O)CCNC(=O)CCNC(=O)CN1CCN(CC(=O)O)CCN(CC(=O)O)CCN(CC(=O)O)CC1)C(=O)N[C@@H](C[Si](C)(C)C)C(=O)O [gallium-68 labelled]	ex vivo biodistribution	nude mice, HT-29 xenograft, bone	90 min, added: levocabastine 0.5 µmol	0.61 ± 0.3
CCCC[C@H]1C(=O)N(C)[C@@H](CCCC)C(=O)N[C@@H](CCCNC(=O)CN2CCN(CC(=O)O)CCN(CC(=O)O)CCN(CC(=O)O)CC2)C(=O)N[C@H](C(=O)NCC(N)=O)CSCC(=O)N[C@@H](Cc2ccc(O)cc2)C(=O)N(C)[C@@H](C)C(=O)N[C@@H](CC(N)=O)C(=O)N2CCC[C@H]2C(=O)N[C@@H](Cc2c[nH]cn2)C(=O)N[C@@H](CC(C)C)C(=O)N(C)CC(=O)N[C@@H](Cc2c[nH]c3ccccc23)C(=O)N[C@@H](CO)C(=O)N[C@@H](Cc2c[nH]c3ccccc23)C(=O)N1C [gallium-68 labelled]		NOD/SCID mice, CHO-hPD-L1 xenograft, stomach	60 min, atezolizumab 10 mg/kg pretreatment	2.77 ± 0.45
CC[C@H](C)[C@H](NC(=O)[C@H](CCCNC(=N)N)NC(=O)[C@H](CCCCN)NC(=O)[C@H](Cc1ccc(O)cc1)NC(=O)[C@H](CC(=O)O)NC(=O)[C@H](C)NC(=O)CNC(=O)CCOCCOCCOCCNC(=O)CN1CCN(CC(=O)O)CCN(CC(=O)O)CCN(CC(=O)O)CC1)C(=O)N[C@H](C(=O)N[C@@H](CC(C)C)C(=O)N[C@@H](CCCCN)C(=O)N[C@H](C(=O)N[C@@H](CC(N)=O)C(N)=O)C(C)C)[C@@H](C)O [copper-64 labelled]	ex vivo gamma counting	C57BL/6J male mice, B16-F10 tumour, thymus	intravenous, 1.85 MBq, 100 min	0.496 ± 0.132
CSCC[C@H](NC(=O)CNC(=O)[C@H](CCCCN)NC(=O)[C@H](CC(C)C)NC(=O)[C@@H]1CCCN1C(=O)[C@H](CO)NC(=O)[C@H](Cc1c[nH]cn1)NC(=O)[C@H](Cc1c[nH]c2ccccc12)NC(=O)[C@H](CCCNC(=N)N)NC(=O)[C@H](CC(C)C)NC(=O)[C@H](CCCNC(=N)N)NC(=O)[C@H](Cc1c[nH]c2ccccc12)NC(=O)[C@H](CS)NC(=O)CCCCCNC(=O)CN1CCN(CC(=O)O)CCN(CC(=O)O)CCN(CC(=O)O)CC1)C(=O)O [copper-64 labelled]	ex vivo biodistribution	male C57BL/6J mice, bone	intravenous, 1.85 MBq, 18 h, B16-F10 tumour-bearing	1.29
CC[C@H](C)[C@H](NC(=O)[C@H](CCCNC(=N)N)NC(=O)[C@H](CCCCN)NC(=O)[C@H](Cc1ccc(O)cc1)NC(=O)[C@H](CC(=O)O)NC(=O)[C@H](C)NC(=O)CNC(=O)CCOCCOCCOCCNC(=O)CN1CCN(CC(=O)O)CCN(CC(=O)O)CCN(CC(=O)O)CC1)C(=O)N[C@H](C(=O)N[C@H](C(=O)N[C@@H](CCCCN)C(=O)N[C@H](C(=O)N[C@@H](CC(N)=O)C(N)=O)C(C)C)C(C)C)[C@@H](C)O [copper-64 labelled]	ex vivo gamma counting	C57BL/6J male mice, B16-F10 tumour, kidney	intravenous, 1.85 MBq, 40 min	11 ± 0.227
CC(C)C[C@@H](NC(=O)[C@@H](CCCNC(=N)N)NC(=O)[C@@H](Cc1c[nH]cn1)NC(=O)[C@@H](Cc1c[nH]c2ccccc12)NC(=O)[C@@H](Cc1c[nH]cn1)NC(=O)[C@@H](Cc1ccccc1)NC(=O)[C@H](NC(=O)[C@@H](Cc1ccc(O)cc1)NC(=O)CNC(=O)CNC(=O)CCOCCOCCOCCNC(=O)CN1CCN(CC(=O)O)CCN(CC(=O)O)CC1)[C@H](C)O)C(=O)N[C@H](CC(N)=O)C(=O)N1CCC[C@@H]1C(=O)O [gallium-68 labelled]	gamma counting	C57BL/6 mice, male, blood	intravenous, 1.85 MBq, 30 min	1.14 ± 0.14

A few entries again:
SMILES	test	test system	conditions	tissue uptake [%ID/g]
CC[C@H](C)[C@H](NC(=O)[C@H](CCCCN)NC(=O)CNC(=O)[C@H](CC(C)C)NC(=O)[C@H](Cc1ccccc1)NC(=O)[C@H](CCCCN)NC(=O)[C@H](CO)NC(=O)[C@H](Cc1ccccc1)NC(=O)[C@H](Cc1c[nH]c2ccccc12)NC(=O)[C@H](CCC(N)=O)NC(=O)[C@@H](NC(=O)[C@H](Cc1ccccc1)NC(=O)CCCCCNC(=O)CN1CCN(CC(=O)O)CCN(CC(=O)O)CCN(CC(=O)O)CC1)C(C)C)C(=O)N[C@@H](CCC(=O)O)C(=O)N1CCC[C@H]1C(=O)N[C@@H](CC(=O)O)C(=O)N[C@H](C(=O)N[C@@H](CO)C(=O)N[C@@H](CCC(N)=O)C(=O)N[C@H](C(=O)N[C@@H](CCC(N)=O)C(=O)N[C@@H](CC(=O)O)C(=O)N1CCC[C@H]1C(=O)N[C@@H](CC(N)=O)C(=O)N[C@@H](CC(=O)O)C(=O)N[C@@H](CCC(N)=O)C(=O)N[C@@H](Cc1ccc(O)cc1)C(=O)N[C@@H](CCC(=O)O)C(=O)N1CCC[C@H]1C(=O)N[C@@H](Cc1ccccc1)C(=O)O)C(C)C)C(C)C [copper-64 labelled]		C57BL/6 mice, male, tumour-free, small intestine	1 h	11.1 ± 1.9
